Published values of several laboratories.
Numbered parts are unrelated; each lists some results of a single study. Substitutions count along the parent as printed.

Set 1
Target: CCND3, cyclin fold, Cln2 fusion (human)
Technique: yeast growth competition, sequencing
Matrix: yeast
Setting: weak parent motif
Relative to: not given
Direction: higher = stronger binding
Parent: CDKN1B docking peptide (human); PSACRNLFGPVDH
| Change | normalised enrichment score |
| --- | --- |
| PQACRNLFGPVDH [S2Q] | 0.0758 |
| PSACRNRFGPVDH [L7R] | 0.113 |
| PSACRNLFGPVDE [H13E] | 0.096 |
| PSACRNLRGPVDH [F8R] | 0.147 |
| PSACRNEFGPVDH [L7E] | 0.141 |
| PSACRNTFGPVDH [L7T] | 0.0836 |
| PSACRNLFCPVDH [G9C] | 0.106 |
| PSACRNLFGPVDY [H13Y] | 0.105 |
| PSACFNLFGPVDH [R5F] | 0.0918 |
| PSACRNLFGPPDH [V11P] | 0.0861 |
| PSKCRNLFGPVDH [A3K] | 0.0959 |
| PSAERNLFGPVDH [C4E] | 0.131 |
| PSANRNLFGPVDH [C4N] | 0.0957 |
| PSACRNLFGPEDH [V11E] | 0.127 |
| PSACRNLFGPTDH [V11T] | 0.0778 |
| DSACRNLFGPVDH [P1D] | 0.064 |
| PSACRNLFQPVDH [G9Q] | 0.137 |
| PSACTNLFGPVDH [R5T] | 0.0601 |
| PGACRNLFGPVDH [S2G] | 0.0515 |
| PPACRNLFGPVDH [S2P] | 0.12 |
| PSACRNLFGPVKH [D12K] | 0.104 |
| PSACRELFGPVDH [N6E] | 0.118 |
| PSHCRNLFGPVDH [A3H] | 0.113 |
| PSACYNLFGPVDH [R5Y] | 0.122 |
| PSACRNLFGPMDH [V11M] | 0.135 |

Set 2
Target: Max dimerization protein 1, bHLH-zipper, MAX partner unstated (MXD1, Homo sapiens, UniProt Q05195, residues 56-136)
Technique: protein-binding microarray
Molecule type: double-stranded DNA, one strand shown
Matrix: in vitro
Concentration: not given
Setting: k-mer, scored over probes, only values ≥0.25
Direction: higher = stronger binding
Construct (chain): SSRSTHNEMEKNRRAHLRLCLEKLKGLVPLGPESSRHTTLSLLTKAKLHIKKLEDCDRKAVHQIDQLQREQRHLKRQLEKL
| Sequence | E-score |
| --- | --- |
| CGTGACCC | 0.263 |
| GCGTGTGA | 0.354 |
| CTCGTGGA | 0.367 |
| AAGCGTGT | 0.358 |
| CCACGCCC | 0.378 |
| CGGGGGGA | 0.255 |
| CCACGCTC | 0.306 |
| CATGGAGC | 0.262 |
| AGTACCAC | 0.257 |
| AGCCCACG | 0.335 |
| CATATGGC | 0.331 |
| ATACACGC | 0.31 |
| ATGCGGTA | 0.263 |
| ATGGGTCG | 0.273 |
| ATGCCCAC | 0.291 |
| AGTCACGA | 0.257 |
| CATGCTAG | 0.282 |
| CACATGAG | 0.385 |
| AACACGCG | 0.428 |
| AGCATGAC | 0.365 |
| CACCACAC | 0.334 |
| AACGCATG | 0.442 |
| AGGGGGGA | 0.31 |
| ATGTGCGA | 0.281 |
| CACGTTGG | 0.402 |

Set 3
Target: Prothrombin, mature alpha-thrombin (F2, Homo sapiens, UniProt P00734)
Technique: aptamer microarray, sandwich
Molecule type: DNA with 2'F-ANA
Matrix: in vitro
Concentration: 200 nM
Setting: whole 15-mer aptamer, many near background
Together with: Cy3 exosite-II aptamer, 400 nM
Direction: higher = stronger binding
Sequence: GGTTGGTGTGGTTGG
| Modification | mean fluorescence intensity [a.u.] |
| --- | --- |
| 2'F-ANA at 1 5 9 15 | 58.2 |
| 2'F-ANA at 1 10 | 82.1 |
| 2'F-ANA at 1 3 6 7 8 9 10 11 12 | 120 |
| 2'F-ANA at 1 2 3 5 6 8 9 10 | 50.2 |
| 2'F-ANA at 1 5 6 7 10 14 | 49.8 |
| 2'F-ANA at 1 3 4 7 9 10 13 | 55.6 |
| 2'F-ANA at 1 2 3 4 5 10 11 14 15 | 94.2 |
| 2'F-ANA at 2 5 6 7 8 9 11 12 14 | 49 |
| 2'F-ANA at 1 3 7 14 15 | 136 |
| 2'F-ANA at 1 2 4 5 6 10 11 14 15 | 53 |
| 2'F-ANA at 3 7 8 9 10 14 | 463 |
| 2'F-ANA at 4 6 7 8 15 | 342 |
| 2'F-ANA at 1 3 4 5 8 10 11 14 15 | 47.8 |
| 2'F-ANA at 1 3 8 10 13 14 | 64 |
| 2'F-ANA at 5 8 10 14 15 | 43.5 |
| 2'F-ANA at 2 3 4 7 10 11 | 261 |
| 2'F-ANA at 1 2 3 7 8 9 10 13 14 | 52.5 |
| 2'F-ANA at 2 3 4 6 7 8 9 13 14 | 209 |

Set 4
Target: RNA binding protein fox-1 homolog 2, RRM domain, GST-SBP tag (RBFOX2, Homo sapiens, UniProt O43251-10, residues 100-194)
Technique: RNA Bind-n-Seq
Molecule type: RNA
Matrix: in vitro
Concentration: 365 nM
Setting: natural RNA segment, single round, ends assumed
Relative to: no-protein control
Direction: higher = stronger binding
All sequences stand within: GGGAGUUCUACAGUCCGACGAUC … UGGAAUUCUCGGGUGCCAA
| Sequence | RBNS enrichment (R) |
| --- | --- |
| AGGGGAUGUGGAGUGAGAACAGCAUUUAGUGAAGUUGUGCAACGGCCAGGGUUGUGCUUUCUAGCAAAUAUGCUGUUAUGUCCAGAAAUUGUGUGUGCAAGAAAACUAGG | 1.45 |
| UUGAUGCGGGGCGGGUAAAGGGUAUUUUAACUUAGGGGUAGUUCCUGCUGUGAGUGGUUACAGCUGAUCCUCGGGAAGAACAAAGCUAAAGCUGCCUUUUGUCUGUUAUU | 0.581 |
| AUAAGUUGAAAGGCACUGGAACUGUUCAUGUCCAUACCAGACCGGUAAAUUAUAAGAUCCAGAUGUUAGUGUCUAGAAUUAGCUGUUUAGAAUUCAGAGGGGACAUAUGU | 0.525 |
| UUCUUUCAAAUCUGAGUGUUGCCUGCUGAACUCGGAGGGGAGUUUGGAGAAAUUUUAGACAGCAGCUCUGUGUUCUUUUUUUGCCGCAGCCAAUAAGAUAAUAGCAGAAU | 3.32 |
| AGCCUUAGUUCUCCUGGAAGCUGCCAACUGCUUACGGGAGUGGGUAGAUUGGGCGUCUGAGACCCAGAACAUCCUAAAUUUGCAAUGGGUAACAGCUGAAACAAACGGAA | 0.405 |
| CAUUUUCUCCAAAGCAGGCUGCCUCUUCAGCAGGAGCAAAUACUUUAAUUUAAAAGAAUGAUUAUCUGUUUUCUCCUUUUAGAAAAAGAGUCUAAGAAACACAGCAUGUG | 17 |
| GAGAGAAGAGUUGUGUCCUUUACCAUAGCAACAGGAUUCAUUGGGGGAUCAAAAUCAUAAUUUUAAAUUAUGCAUUAUAUUUCUUUUCUCCACUCCUCACAUAUACAGAA | 0.403 |
| GUCAAGUCGGAGAGGGACUCUUCAGUAUGGAGGCAGCCUGUGGAGUGCAGCGCCUUUGAGGCUCUGGGUGUAAGACAGUUUCCUUCCCUGACUCUCGUGCACAGACAGCA | 12.5 |

Set 5
Target: Sal-like protein 4, full length isoform A (SALL4, Homo sapiens, UniProt Q9UJQ4, residues 1-1053)
UniProt Q9UJQ4, sequence (whole entry, looked up): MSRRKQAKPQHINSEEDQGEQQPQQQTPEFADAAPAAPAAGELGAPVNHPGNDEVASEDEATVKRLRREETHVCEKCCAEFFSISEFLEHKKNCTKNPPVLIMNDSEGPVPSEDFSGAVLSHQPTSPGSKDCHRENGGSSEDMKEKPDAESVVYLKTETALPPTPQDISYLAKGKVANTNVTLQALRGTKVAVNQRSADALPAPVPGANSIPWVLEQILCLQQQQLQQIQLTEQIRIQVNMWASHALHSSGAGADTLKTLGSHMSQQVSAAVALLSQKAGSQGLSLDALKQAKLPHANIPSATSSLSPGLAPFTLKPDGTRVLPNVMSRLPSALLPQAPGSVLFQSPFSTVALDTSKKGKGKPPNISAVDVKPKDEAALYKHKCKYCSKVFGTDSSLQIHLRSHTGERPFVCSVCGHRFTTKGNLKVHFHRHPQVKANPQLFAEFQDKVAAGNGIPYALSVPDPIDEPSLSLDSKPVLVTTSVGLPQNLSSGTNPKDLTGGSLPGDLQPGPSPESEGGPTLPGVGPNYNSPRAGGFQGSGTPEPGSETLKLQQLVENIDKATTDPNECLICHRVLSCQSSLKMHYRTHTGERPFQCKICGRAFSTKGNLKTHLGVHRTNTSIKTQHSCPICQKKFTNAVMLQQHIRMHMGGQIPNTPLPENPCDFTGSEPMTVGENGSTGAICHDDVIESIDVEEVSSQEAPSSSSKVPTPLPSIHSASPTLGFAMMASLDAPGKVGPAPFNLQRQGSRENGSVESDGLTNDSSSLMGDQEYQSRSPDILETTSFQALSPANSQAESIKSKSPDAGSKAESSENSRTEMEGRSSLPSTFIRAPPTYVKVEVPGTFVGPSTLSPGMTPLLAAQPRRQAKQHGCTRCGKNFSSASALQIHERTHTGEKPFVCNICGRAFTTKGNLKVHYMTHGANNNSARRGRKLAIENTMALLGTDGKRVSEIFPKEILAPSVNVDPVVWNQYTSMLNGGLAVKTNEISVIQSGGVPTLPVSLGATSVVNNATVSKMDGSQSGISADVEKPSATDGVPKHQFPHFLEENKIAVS
Technique: universal PBM
Molecule type: double-stranded DNA, one strand shown
Matrix: in vitro
Concentration: 600 nM
Setting: 8-mer, flanks averaged, mean of replicates
Direction: higher = stronger binding
| Sequence | E-score |
| --- | --- |
| CATTCACG | -0.113 |
| GTATGAGA | 0.2 |
| GGTTAACC | -0.149 |
| AATCCGGG | -0.222 |
| TCCGACAA | 0.0293 |
| ACACAAAG | 0.049 |
| GAGGACGC | -0.232 |
| CAATCGCC | -0.122 |
| CTTGATGA | 0.13 |
| AAACTGTA | 0.24 |
| CACATCTA | 0.195 |
| CGACTAGC | -0.111 |
| AGATACTG | 0.0672 |
| CGGTTTAG | -0.206 |
| GAGAGCTA | -0.0271 |
| ATCGTTCC | -0.194 |
